Assay results collected from several papers.
± gives the spread as reported.
Chain of UniProt Q9NX63 (whole entry, looked up): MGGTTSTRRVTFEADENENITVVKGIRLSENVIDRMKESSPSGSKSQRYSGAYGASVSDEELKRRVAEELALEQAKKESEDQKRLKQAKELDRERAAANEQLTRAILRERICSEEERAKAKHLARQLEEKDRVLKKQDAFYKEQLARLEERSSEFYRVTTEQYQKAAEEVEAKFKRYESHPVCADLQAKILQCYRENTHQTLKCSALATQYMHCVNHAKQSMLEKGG

Compound | tested on | test | system | conditions | how to read | quantity | value
O=C1c2c(O)c(=O)ccn2N([C@@H]2c3ccccc3SCc3c2ccc(F)c3F)[C@@H]2COCCN12 | – | – | BALB/c mouse | subcutaneous, 2 mg/kg q24h | – | trough concentration | 1.81 ng/mL
COc1cc2c(Oc3ccc4[nH]c(C)cc4c3F)ccnc2cc1OCC1(N)CC1 | – | – | paediatric recurrent refractory sarcoma | 8 mg | – | grade 3 hand-foot syndrome | 0%
CC[C@H](C)[C@@H]1NC(=O)[C@@H]2CCCN2C(=O)[C@H](CC(C)C)NC(=O)[C@H](CC(C)C)NC(=O)CNC(=O)[C@@H](NC(=O)[C@@H](NC(=O)[C@H](CC(=O)O)NC(=O)CNC(=O)[C@@H](NC(=O)[C@H](C)NC(=O)CNC(=O)[C@H](CCCCN)NC(=O)[C@H](CC(C)C)NC(=O)[C@H](CC(C)C)NC(=O)[C@H](CCCCN)NC(=O)CNC(=O)[C@@H](NC(=O)[C@@H](N)CC(C)C)C(C)C)C(C)C)C(C)C)CSSC[C@@H](C(=O)O)NC1=O | – | RNA-seq, measured: Sp140 | mouse, traumatic brain injury model, frontal cortex and hippocampus | dose not given | baseline: TBI alone | log2 fold change | -3.17
CC[C@H](C)[C@H](NC(=O)[C@H](Cc1ccccc1)NC(=O)[C@H](CCC(=O)O)NC(=O)[C@H](CCCNC(=N)N)NC(=O)[C@H](C)NC(=O)[C@H](C)NC(=O)[C@H](CCC(N)=O)NC(=O)[C@H](CCC(=O)O)NC(=O)[C@H](CCC(=O)O)NC(=O)[C@H](CC(C)C)NC(=O)[C@H](Cc1ccc(O)cc1)NC(=O)[C@H](CO)NC(=O)[C@H](CO)NC(=O)[C@@H](NC(=O)[C@H](CC(=O)O)NC(=O)[C@H](CO)NC(=O)[C@@H](NC(=O)[C@H](Cc1ccccc1)NC(=O)[C@@H](NC(=O)CNC(=O)[C@H](CCC(=O)O)NC(=O)[C@H](C)NC(=O)CCc1c[nH]cn1)[C@@H](C)O)[C@@H](C)O)C(C)C)C(=O)N[C@@H](C)C(=O)N[C@@H](Cc1c[nH]c2ccccc12)C(=O)N[C@@H](CC(C)C)C(=O)N[C@H](C(=O)N[C@@H](CCCNC(=N)N)C(=O)NCC(=O)N[C@@H](CCCNC(=N)N)C(=O)N[C@@H](CCCCNC(=O)COCCOCCNC(=O)COCCOCCNC(=O)CC[C@H](NC(=O)CCCCCCCCCCCCCCCCC(=O)O)C(=O)O)C(=O)NCC(=O)NCC(=O)N[C@@H](CO)C(=O)N[C@@H](CCCCNc1c(NCCCCCN(O)C(=O)CCC(=O)NCCCCCN(O)C(=O)CCC(=O)NCCCCCN(O)C(C)=O)c(=O)c1=O)C(=O)O)C(C)C [zirconium-89 labelled] | – | ex vivo gamma counting | rat, stomach | subcutaneous, 3 nmol/kg, 168 h, added: [89Zr]-labelled peptide | – | tissue uptake | 0.13 %ID/g
OCc1ncc2n1-c1ccc(Cl)cc1C(c1ccccc1F)=NC2 | – | – | human, plasma | oral, 7.5 mg of midazolam, day 26, geometric mean, no amenamevir | – | AUC(0-t) | 40.4 ng·h/mL
COc1cccc(C2(O)CCCCC2CN(C)C)c1 (stereo not drawn) | – | joint PK model | human, whole blood | oral, two-compartment metabolite model | – | absorption rate constant | 4.06 ng/h
C[C@H]1CN(c2n[nH]c3nc(N[C@H]4CC[C@H](NS(=O)(=O)CCC(F)(F)F)CC4)ncc23)CCO1 | MICOS complex subunit MIC19 (Homo sapiens, UniProt Q9NX63) | Kinobeads competition, measured: CHCHD3 | – | 0.16 µM, unit not given | baseline: vehicle | remaining binding | 1.02
Cc1ncc(OC[C@@]2(c3cccc(F)c3)C[C@H]2C(=O)Nc2ccc(F)cn2)c(C)n1 | – | population PK base model | human, plasma | oral | – | absorption lag time | 0.401 h
CCN(CC)C(=O)[C@@H]1C=C2c3cccc4[nH]cc(c34)C[C@H]2N(C)C1 | – | measured: lack of appetite | healthy volunteers | dose not given, 0 to 12 h | baseline: placebo, direction not given | List of Complaints score | 9
CCCC(C(=O)c1ccc2c(c1)OCO2)N1CCCC1.Cl (racemic) | – | – | rat | subcutaneous, 1 mg/kg, 240 min | – | brain-to-plasma ratio | 11.1 ± 2.1
CN/C(=N\[N+](=O)[O-])NCc1cnc(Cl)s1 | – | – | soil | 56 days, nominal 3.3 | – | recovery | 51.5%
CCCC(C(=O)c1ccc(O)c(OC)c1)N1CCCC1 (stereo not drawn) | – | – | rat | subcutaneous, 2 mg/kg MDPV, 240 min | – | brain-to-plasma ratio | 0.1
CCC(CC)COC(=O)[C@H](C)N[P@](=O)(OC[C@H]1O[C@@](C#N)(c2ccc3c(N)ncnn23)[C@H](O)[C@@H]1O)Oc1ccccc1 | – | – | human | intravenous, dose not given | – | participants with adverse events | 10.3%
CCCC(C(=O)c1ccc(O)c(O)c1)N1CCCC1 (stereo not drawn) | – | LC-MS/MS | rat, trunk blood plasma | subcutaneous, 4 mg/kg MDPV, 240 min | – | plasma concentration | 60.4 ± 6.9 ng/mL
C[C@@H](O)[C@@H](CO)NC(=O)[C@@H](CCCNC(=N)N)NC(=O)[C@@H]1CCCN1C(=O)[C@@H]1CSSC[C@H](NC(=O)[C@H](Cc2ccccc2)NC(=O)CN2CCN(CC(=O)O)CCN(CC(=O)O)CCN(CC(=O)O)CC2)C(=O)N[C@@H](Cc2ccc(O)cc2)C(=O)N[C@@H](Cc2ccccc2)C(=O)N[C@@H](CCC(N)=O)C(=O)N[C@@H](CC(N)=O)C(=O)N1 [gallium-68 labelled] | – | – | healthy Wistar rat, bone | intravenous, 8 MBq, 30 min, individual animals | – | tissue uptake | 0.12 %ID/g
